Results collected from several papers.
Compare with care: the assays were run in different laboratories. Numbers after ± are the reported error.

SMILES | test system | conditions | how to read | endpoint | value
O=C(COc1ccc(Cl)cc1)NC12CC(c3nnc([C@H]4C[C@@H](OC(F)(F)F)C4)o3)(C1)C2 | healthy human volunteers fasted, plasma | oral, 100 mg single dose, geometric mean | – | AUC | 87.1 µM·h
CC(C)(C#N)c1cc(Cn2cncn2)cc(C(C)(C)C#N)c1 | human | 150 mg | – | AUC at steady state | 944 ng·h/mL
CC#CC(=O)N1CCC[C@H]1c1nc(-c2ccc(C(=O)Nc3ccccn3)cc2)c2c(N)nccn12 | human, plasma | oral, dose not given, 100 mg once daily dosing, with: rifampicin 600 mg | – | AUC | 150 ng·h/mL
N#Cc1cc(NC(=O)[C@H]2c3ccccc3C(=O)N(CC(F)(F)F)[C@@H]2c2cccnc2)ccc1F | human, plasma | oral, 75 mg, median | – | AUC | 2610 ng·h/mL
CC(C)(C(=O)N1CCOc2c(C#N)cncc2C1)C(F)F | healthy humans, both sexes, plasma | oral, 20 mg single dose, 2-fold dose increase | reference: 20 mg over 10 mg | AUC dose proportionality ratio | 2.07
CN1CCC(COc2cnc(-c3cccc(Cn4nc(-c5cccc(C#N)c5)ccc4=O)c3)nc2)CC1 | human | dose not given, worst case, biliary clearance P-gp dependent, with: maximal P-gp inhibition | – | AUC increase | 43%
C=CC(=O)N1CCC[C@@H](n2c(=O)n(-c3ccc(Oc4ccccc4)cc3)c3c(N)nccc32)C1 | human | oral, 120 mg | reference: fed over fasted | AUC fed/fasted ratio | 1.54
N#Cc1ccc(C(c2ccc(C#N)cc2)n2cncn2)cc1 | human | 125 mg | – | AUC at steady state | 3160 ng·h/mL
CN(C(=O)C(C)(C)c1cc(C(F)(F)F)cc(C(F)(F)F)c1)c1cnc(N2C[C@H]3COCCN3C[C@H]2CO)cc1-c1ccc(F)cc1[14CH3] | human, plasma | oral, 120 mg | – | AUC extrapolated | 1.11%
C[C@@H](c1ccc2nccn2c1)n1nnc2ncc(-c3cnn(C)c3)nc21 | human, plasma | oral, 300 mg, cycle 2 day 1, multiple doses | – | AUC at steady state | 8070 ng·h/mL
Nc1ccn([C@@H]2O[C@H](CO)[C@@H](O)C2(F)F)c(=O)n1 | human patients, plasma | intravenous, 800 mg/m2, median, after paricalcitol | – | AUC extrapolated | 0.26%
COc1ccc2[nH]c([S@+]([O-])Cc3ncc(C)c(OC)c3C)nc2c1 | human male, dried plasma spots | dose not given, with: rifampicin pretreatment | reference: control over induction | AUC fold decrease | 10.9 fold
COC(=O)N[C@H](C(=O)N1CCC[C@H]1c1ncc(-c2cc(F)c3c(c2)O[C@@H](c2cnc(C4CC4)s2)n2c-3cc3cc(-c4cnc([C@@H]5CCCN5C(=O)[C@@H](NC(=O)OC)C(C)C)[nH]4)ccc32)[nH]1)C(C)C | healthy adult humans | oral, dose not given | reference: moderate-fat meal over fasted | AUC increase | 63%
CC1(C)CC[C@]2(NC(=O)C(C)(F)F)CC[C@]3(C)[C@H](C(=O)C=C4[C@@]5(C)C=C(C#N)C(=O)C(C)(C)[C@@H]5CC[C@]43C)[C@@H]2C1 | human, plasma | oral, dose not given, with: efavirenz | – | AUC extrapolated percentage | 2.4%
N#Cc1ccc(C(c2ccc(C#N)cc2)n2cncn2)cc1 | human patients, plasma | oral, 2.5 mg daily | – | AUC at steady state per dose | 2.52 ± 0.34 µg·h/mL/mg
COc1ccc2nc([S@@+]([O-])Cc3ncc(CO)c(OC)c3C)[nH]c2c1 | human, dried plasma spots | dose not given, mean, with: fluvoxamine and voriconazole | reference: inhibition over control | AUC fold change | 2.51 fold
Cc1cc(-c2nccc3c2ccn3CC(=O)Nc2ccc(-c3cnccn3)cn2)ccn1 | human, plasma | oral, 20 mg single dose, geometric mean | – | AUC | 1.55 µM·h
C=CC(=O)Nc1cc(Nc2nccc(-c3cn(C)c4ccccc34)n2)c(OC)cc1N(C)CCN(C)C | human patients | oral, dose not given, cycle 3 day 1, geometric mean, with: chemotherapy | – | AUC at steady state | 11.8 µM·h
